Measurements pooled from the literature.
Parts stem from different laboratories: compare values within a part only.

Series 1
Target: Ras GTPase-activating protein-binding protein 1, C-terminal RGG region (G3BP1, Homo sapiens, UniProt Q13283)
UniProt Q13283, sequence (whole entry, looked up): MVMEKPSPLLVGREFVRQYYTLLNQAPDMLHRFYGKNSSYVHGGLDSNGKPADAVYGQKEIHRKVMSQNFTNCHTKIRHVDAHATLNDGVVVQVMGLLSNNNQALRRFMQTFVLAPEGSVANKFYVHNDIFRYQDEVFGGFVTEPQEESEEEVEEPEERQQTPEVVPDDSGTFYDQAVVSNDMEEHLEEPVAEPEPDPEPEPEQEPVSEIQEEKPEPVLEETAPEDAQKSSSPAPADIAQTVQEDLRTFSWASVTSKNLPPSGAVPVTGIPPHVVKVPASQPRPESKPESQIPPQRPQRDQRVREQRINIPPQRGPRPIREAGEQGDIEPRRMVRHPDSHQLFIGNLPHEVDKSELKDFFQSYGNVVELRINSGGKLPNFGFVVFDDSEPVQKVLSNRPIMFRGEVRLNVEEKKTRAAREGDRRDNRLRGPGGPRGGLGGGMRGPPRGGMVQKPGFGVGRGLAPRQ
Method: RNA Bind-n-Seq
Form: RNA
Sample: in vitro
Concentration: 1 µM
Notes: whole 134-nt RNA, ends assumed
Together with: 150 mM KCl
Reference: input library
Direction: higher = stronger binding
Endpoint: log2 enrichment
Oligonucleotide = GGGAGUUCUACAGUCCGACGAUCCUCAAGUCCUGUGCUACACAUCGUAUGUACCGAAUCGGAGGAAAGGAAAAAGGAAAGUAUUAUGUUACGCCGUUCGGAUCUGCACUUCCAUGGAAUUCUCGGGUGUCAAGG; value = -1.37
Oligonucleotide = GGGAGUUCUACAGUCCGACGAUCGAGGAGACUCUGCGCAGAGCACUUUGGGUCCGGAGGGCGAGACUCCGGCGGAAGCAUUCCCGGGCGGGUGACCCAGCACGGUCCCUCUUGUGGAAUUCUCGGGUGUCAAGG; value = -1.8
Oligonucleotide = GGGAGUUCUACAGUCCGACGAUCUCAAGUCCUGUGCUACACAUCGUAUGUACCGAAUCGGGGUUGGGUUGGUUGGGGAAAGUAUUAUGUUACGCCGUUCGGAUCUGCACUUCCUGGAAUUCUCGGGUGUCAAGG; value = 0.757
Oligonucleotide = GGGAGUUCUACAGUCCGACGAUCUUUGAAGAUCAGCUUCAGCAAUGGUUGUCUGAAGACUCAGGAGCAUUUACGGAUUUAACUUCCCUUCCCCUCUAUCUUCCUCAGACUCUAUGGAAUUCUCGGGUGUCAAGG; value = -0.565
Oligonucleotide = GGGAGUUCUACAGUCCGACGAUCAAGUCCUGUGCUACACAUCGUAUGUACCGAAUCGGGAAAAGGGGAAAAGGGAAAAGGAAAGUAUUAUGUUACGCCGUUCGGAUCUGCACUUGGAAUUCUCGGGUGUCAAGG; value = -1.26
Oligonucleotide = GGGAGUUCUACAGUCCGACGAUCCUGUGCUACACAUCGUAUGUACCGAAUCGGGGAAAAAGGGGAAAAAGGGGAAAAAAAGGGGAAAGUAUUAUGUUACGCCGUUCGGAUCUGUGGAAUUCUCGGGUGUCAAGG; value = -0.144
Oligonucleotide = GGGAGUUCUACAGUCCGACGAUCUGGCCCUGGUGGCAUGCGGGGAGGAAGAGGUGUCCUCAUGGAUCGUGGUGGUCCCGGUGGAAUGUUCAGAGGUGGCCGUGGUGGAGACAGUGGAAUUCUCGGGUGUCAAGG; value = 1.72
Oligonucleotide = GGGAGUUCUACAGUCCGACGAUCUAACUUUAGAGGAGGAUCUGAUGGAUAUGGCAGUGGACGUGGAUUUGGGGAUGGCUAUAAUGGGUAUGGAGGAGGAACUGGAGGUGGCAAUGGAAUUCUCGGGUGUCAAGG; value = -0.802
Oligonucleotide = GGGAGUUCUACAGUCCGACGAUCCACAGACAACACGCACCCACACAGACACAGAGGGAAGGGGUUGAAAUGGGGACAGGGUGCACAGCAGGGCGGGGUAGGACCCCAGCCCCUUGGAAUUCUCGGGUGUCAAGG; value = -0.139
Oligonucleotide = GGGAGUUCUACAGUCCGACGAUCUCAAGUCCUGUGCUACACAUCGUAUGUACCGAAUCGGGGUUUGGUUUGGGUUUGGAAAGUAUUAUGUUACGCCGUUCGGAUCUGCACUUCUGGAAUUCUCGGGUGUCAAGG; value = -0.975

Series 2
Target: RING finger protein unkempt homolog, zinc fingers 1-6, GST-SBP tag (UNK, Homo sapiens, UniProt Q9C0B0, residues 30-357)
Method: RNA Bind-n-Seq
Form: RNA
Sample: in vitro
Concentration: not given
Notes: RNA with constant flanks, ends assumed
Reference: input RNA pool
Direction: higher = stronger binding
Endpoint: bound/input enrichment
Residues (chain): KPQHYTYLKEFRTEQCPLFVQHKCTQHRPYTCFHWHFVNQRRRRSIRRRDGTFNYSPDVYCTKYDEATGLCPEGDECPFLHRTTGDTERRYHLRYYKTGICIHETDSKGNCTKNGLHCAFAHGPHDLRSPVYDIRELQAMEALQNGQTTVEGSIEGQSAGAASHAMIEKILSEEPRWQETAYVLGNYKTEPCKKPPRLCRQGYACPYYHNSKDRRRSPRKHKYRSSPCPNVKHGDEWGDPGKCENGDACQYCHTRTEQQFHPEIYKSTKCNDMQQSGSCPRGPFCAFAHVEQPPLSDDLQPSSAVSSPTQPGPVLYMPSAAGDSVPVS
Oligonucleotide = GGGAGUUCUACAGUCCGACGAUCGCAGCUGGAGAUUCUAAGUCCAUCAUCACGUGUCGGGUGUCCCUUCUGGAUGGUACUGAUGUCCGUGUGGACUUGCCAAAAAAAGCCAAAGGACAAGAGUUGUUUGAUCAGAUUAUGUACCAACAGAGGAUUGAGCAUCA; value = 0.137 ratio
Oligonucleotide = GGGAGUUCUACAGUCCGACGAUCGUACUGCAACAGCAGGGCAAGCUGCAGGAAGCACUGAUGCACUAUAAAGAAGCCAUACGAAUCCGUCCUACAUUUGCUGAUGCUUAUUCCAAUAUGGGAAACACUCUAAAGGAGAUGCAGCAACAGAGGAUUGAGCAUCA; value = 0.164 ratio
Oligonucleotide = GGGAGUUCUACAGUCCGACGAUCAAUGAGGCCUCACCCCUGGACCCCAUUACUGAGGAAGAUGAGAAAUCCGACCAGUCAGGCCGUAAGCUGCUCCCAGGCAAGAAGUCUUCAGAACGGCCUAGUCUCUUCCAGACAGACUUGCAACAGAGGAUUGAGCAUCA; value = 0.112 ratio
Oligonucleotide = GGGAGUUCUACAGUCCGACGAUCAAGUUUCUGGACGGCAAUGAGCUCACCCUGGCUGACUGCAACCUGCUGCCAAAGCUUCACACCGUACAGGUGGUGUGCAAAAAGUACAGAGGCUUCACCAUCCCAGAGGCAUUCCGUGGACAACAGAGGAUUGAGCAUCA; value = 0.139 ratio
Oligonucleotide = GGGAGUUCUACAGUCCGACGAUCGAUGGCAAUGGCCAGGAGGCCUAUGCCUCGAGCUGCAACAGCGGCACCUCUUACAAUUCCAUCCGCUCUGUUGUAUCCCGGUGAGGGCAGCCUCUGGCUUGGGCAGGGUCUGUUUGGACUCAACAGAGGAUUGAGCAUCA; value = 0.0789 ratio
Oligonucleotide = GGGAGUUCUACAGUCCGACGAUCAAACUAAUACUUAUCUUUAAAAUAGUAAAUAGGAUUUUAAACAGAGAAUUUUAUCAGUAACCGGUGUCAGUUUUUAAAAAAUUGCUUGUAGGCUGAGCGCGGUGGCUCACGCCUGUAAUCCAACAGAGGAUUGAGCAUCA; value = 3.4 ratio
Oligonucleotide = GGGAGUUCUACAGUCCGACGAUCAGCUUGAGCAGUUUGUUAAAGAAUGACAUUUCAGAUUCGGGAAUUGUGGGGCUUCAGCCCACCGACUUUGUCGCCAGUGCUCAUCAGCAUCCAGUGAGUGAGAGGCAAGAGGAGAUUCCCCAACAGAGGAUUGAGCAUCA; value = 0.22 ratio
Oligonucleotide = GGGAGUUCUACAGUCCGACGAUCGGAAGAGUUGGGCUGUGGAAGGACAUCUUCACCGUCUCCAUGAACGAGAAGUUUGAUCCCGUGUACAAACAGAAGAUGGGGAAGUGUGACCUCACGUUUGACUUUUAUCUAUAAUACCAGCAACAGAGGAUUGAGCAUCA; value = 0.102 ratio
Oligonucleotide = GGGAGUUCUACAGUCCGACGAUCCGGCGCUACACUAGAGCAGAGUACGAGUCUGAGGCGGAGGGAGUAAUGGCAGGACAAGCGUUCCGAAAGUUUCUUCCACUCUUUGACCGAGUAUUGGUUGAAAGGAGUGCUGCUGAAACUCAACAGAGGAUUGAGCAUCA; value = 0.167 ratio
Oligonucleotide = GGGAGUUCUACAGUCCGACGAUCCUUUGAAUCUAAGGGAUAUAAAAAGAACCUAAUUACAGUAGAUACAAUGAAAAUAAUGGCUACCGAUGUUUGGACUGGAAGCAGUGUGGCCAAUAUGACUUAAAGAGACCUUAAAAUAUACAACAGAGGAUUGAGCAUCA; value = 23.9 ratio
Oligonucleotide = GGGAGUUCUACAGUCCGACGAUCCAAUAUAAGGAUGAUAAUUUUGGAGAAGGAAAUGAUGGUGGAAUAUUAGAUGACAAACUUAUCCGUAAUAAUGAUGGCGGUAUCUUUGAUGAUCCCCCUGCCCUCUCUGAGGCAGGGGUGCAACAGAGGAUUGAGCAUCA; value = 2.18 ratio

Series 3
Target: RNA binding protein fox-1 homolog 2, RRM domain, GST-SBP tag (RBFOX2, Homo sapiens, UniProt O43251-10, residues 100-194)
Method: RNA Bind-n-Seq
Form: RNA
Sample: in vitro
Concentration: 365 nM
Notes: natural RNA segment, single round, ends assumed
Reference: no-protein control
Direction: higher = stronger binding
Endpoint: RBNS enrichment (R)
Residues (chain): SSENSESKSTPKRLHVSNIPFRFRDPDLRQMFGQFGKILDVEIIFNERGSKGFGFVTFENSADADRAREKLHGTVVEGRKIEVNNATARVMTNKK
Oligonucleotide = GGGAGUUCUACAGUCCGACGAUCCAACCAUUUUUAUUUAAAAUAAACAUUUGAGGGAAGUUACCAAGGCAGCUUUUUUCCUCAAAAGUAACCUGUUCCUCUUUGGAAUAGCACAUUUUAGGGGCAUGGUUAAUUGGAAUUCUCGGGUGCCAA; value = 0.4
Oligonucleotide = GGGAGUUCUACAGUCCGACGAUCAUUUAGUGAAAUGCUGUUGCCCCAAAGUGAUGGUUGUGGGAUUUCUUACCGGUCAUAGGCCCCGGUGAGGAGCAGGGAAGCGCCAUUGUGAAAGAUUAAAGAAAGCACUUUGGAAUUCUCGGGUGCCAA; value = 0.649
Oligonucleotide = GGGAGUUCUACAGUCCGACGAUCUUGGGGCCUAGGAACCGAGGGCACACGGGACUCUAGCCUCAUCCCCAGGACCCCCUUGGCUCAGAGUGUGGUGCUAGAAACUGGCCCCCAGCCCAGCCCCAGUACUGCCAUGGAAUUCUCGGGUGCCAA; value = 0.288
Oligonucleotide = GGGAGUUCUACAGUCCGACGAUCUCCUUCUAGGAAGGGGCUUUCAGGAGAGAGAGUUCUUGUGCUGUCUGAGAAGUGCAGGGGAGACAAAUGAAUGCAGUGUCCAUCCAGCUCUGGGUUUUCUUUAUCCUGCCUGGAAUUCUCGGGUGCCAA; value = 0.747
Oligonucleotide = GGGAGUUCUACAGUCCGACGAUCUGAGGGUCCACAGUGAACCUUGAUCAAAUUGCACAGUGGGUUGUUCCUCCACACACCCUCCUUUUUUUACGGUCAAUAUAUUUGUAAAUGGUACAAGAUGAAGGACAACAUGGAAUUCUCGGGUGCCAA; value = 0.548
Oligonucleotide = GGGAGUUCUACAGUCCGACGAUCGGUGAUAGACCCUGGUACUCCUAAGACCUGGGGUAUCAUAUCAGGGACCUGCUUGUGAACAUGUGUAUAGAGUGCCAGCUCAGAUAAUAAGCUUACCAGUGACCUUGUUCUGGAAUUCUCGGGUGCCAA; value = 0.836
Oligonucleotide = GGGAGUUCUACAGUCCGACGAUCGCUCCUCCUGUGCCCCAAUCUUUCCCAGUCCUUUCCCCUCAGAUGGAGACUUCAUUAUGUUAAUGAACGAGAUAAGAAGAAAAUGGCGCUCAUUGUGGCCUUGUUGAGUUUGGAAUUCUCGGGUGCCAA; value = 0.393
Oligonucleotide = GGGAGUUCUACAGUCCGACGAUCUUUCCCACUACUCCCUUACUGUCUUUUAGCAUUCAGAGAAAAAGCCAACUUGCUUAAAGAGGAAUCACUUAAAAGGUAGGCAUAUCUAAGAUGCUCAUAGAAGAGGAAGAUGGAAUUCUCGGGUGCCAA; value = 0.379
Oligonucleotide = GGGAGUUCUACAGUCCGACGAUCAGGUUUAAUAUGCAUUCAGAUUACUUUUACUAAAUAGGACACCAUAAAGCUUUUGUUAUAUAUUAAAUGUAAACUGAAAGGAAUGUAAACAUAUGUAUUGUUAAUUAUAAUGGAAUUCUCGGGUGCCAA; value = 1.04

Series 4
Target: Histone acetyltransferase KAT6A, winged helix 2, GST fusion (KAT6A, Homo sapiens, UniProt Q92794, residues 85-181)
Method: protein binding microarray
Form: double-stranded DNA, one strand shown
Sample: in vitro
Concentration: not given
Notes: 8-mer, flanks averaged, mean of 2 arrays, mostly near background
Reference: not given
Direction: higher = stronger binding
Endpoint: E-score
Construct (chain): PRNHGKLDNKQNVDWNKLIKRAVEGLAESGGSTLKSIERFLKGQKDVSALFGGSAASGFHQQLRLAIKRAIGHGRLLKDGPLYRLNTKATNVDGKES
Oligonucleotide = GCACTAAC; value = -0.000275
Oligonucleotide = GGCAGCAC; value = -0.056
Oligonucleotide = GCGTATAA; value = 0.118
Oligonucleotide = GGGACGTA; value = -0.107
Oligonucleotide = GAAGCATC; value = 0.0534
Oligonucleotide = ACATAGCT; value = -0.0779
Oligonucleotide = CCTCACAG; value = 0.11
Oligonucleotide = AAATCTTG; value = -0.0308
Oligonucleotide = AGTGAGCC; value = -0.0898
Oligonucleotide = GTCAGCAA; value = 0.0375
Oligonucleotide = CTTCCCCA; value = -0.00169
Oligonucleotide = ACGAGTGG; value = -0.141
Oligonucleotide = AGGAGAAA; value = -0.0826
Oligonucleotide = AATTGGGT; value = 0.158
Oligonucleotide = AGATGTGC; value = -0.144
Oligonucleotide = TGCCGCCA; value = 0.156
Oligonucleotide = CATAGGTC; value = -0.0178
Oligonucleotide = CACCACTG; value = -0.0185
Oligonucleotide = GGTGTGAA; value = 0.0757
Oligonucleotide = AAGTACGA; value = -0.0523
Oligonucleotide = ACAGTGAT; value = -0.196
Oligonucleotide = AATCGGCG; value = 0.0959
Oligonucleotide = GTACTACA; value = -0.0764
Oligonucleotide = ACTCCTAT; value = -0.125
Oligonucleotide = GAGTCATA; value = -0.122

A few entries again (series 4):
Oligonucleotide = TGCCGCCA; value = 0.156
Oligonucleotide = CATAGGTC; value = -0.0178
Oligonucleotide = CACCACTG; value = -0.0185
Oligonucleotide = GGTGTGAA; value = 0.0757
Oligonucleotide = AAGTACGA; value = -0.0523
Oligonucleotide = ACAGTGAT; value = -0.196
